{"data": "Measurements from different studies", "note": "A part holds a random share of what one study measured. Positions count from the first letter of the parent shown."}
{"data": "Block 1", "target": "Histone acetyltransferase KAT6A, winged helix 1, GST fusion (KAT6A, Homo sapiens, UniProt Q92794, residues 1-85)", "method": "protein binding microarray", "form": "double-stranded DNA, one strand shown", "matrix": "in vitro", "tested at": "not given", "setting": "8-mer, flanks averaged, mean of 2 arrays, mostly near background", "baseline": "not given", "reading": "higher = stronger binding", "Construct (chain)": "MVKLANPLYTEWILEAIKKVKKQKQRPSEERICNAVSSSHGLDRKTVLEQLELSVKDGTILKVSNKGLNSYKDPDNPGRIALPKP"}
{"Oligonucleotide": "CTATACAA", "E-score": -0.0198}
{"Oligonucleotide": "GAATGCTA", "E-score": -0.0968}
{"Oligonucleotide": "GGCATACA", "E-score": -0.0408}
{"Oligonucleotide": "AGAGTAAC", "E-score": -0.0436}
{"Oligonucleotide": "CCATTGGC", "E-score": -0.119}
{"Oligonucleotide": "GGACAATA", "E-score": -0.0116}
{"Oligonucleotide": "ATGTGGCC", "E-score": -0.163}
{"Oligonucleotide": "TCATATCA", "E-score": -0.128}
{"Oligonucleotide": "ACCGGCTG", "E-score": 0.13}
{"Oligonucleotide": "ACCGGCAG", "E-score": 0.293}
{"data": "Block 2", "target": "CCNE1, cyclin fold, Cln2 fusion (human)", "method": "yeast growth competition, sequencing", "matrix": "yeast", "setting": "weak parent motif", "baseline": "not given", "reading": "higher = stronger binding", "starting sequence": "SLBP docking peptide (human); ARYKRKLLINDFG"}
{"Substitution": "ARYKRKLLINIFG [D11I]", "normalised enrichment score": 1.41}
{"Substitution": "ARYKRKLLIHDFG [N10H]", "normalised enrichment score": 0.858}
{"Substitution": "ARYKRKLLINWFG [D11W]", "normalised enrichment score": 0.706}
{"Substitution": "ARYKRKLLITDFG [N10T]", "normalised enrichment score": 1.04}
{"Substitution": "AQYKRKLLINDFG [R2Q]", "normalised enrichment score": 1.4}
{"data": "Block 3", "target": "Prothrombin, mature alpha-thrombin (F2, Homo sapiens, UniProt P00734)", "method": "aptamer microarray, sandwich", "form": "DNA with 2'F-ANA", "matrix": "in vitro", "tested at": "200 nM", "setting": "whole 15-mer aptamer, many near background", "together with": "Cy3 exosite-II aptamer, 400 nM", "reading": "higher = stronger binding", "oligonucleotide": "GGTTGGTGTGGTTGG"}
{"Modification": "2'F-ANA at 1 2 3 4 5 13 14", "mean fluorescence intensity [a.u.]": 49.6}
{"Modification": "2'F-ANA at 2 3 5 6 7 9 11 13 14", "mean fluorescence intensity [a.u.]": 98.5}
{"Modification": "2'F-ANA at 1 2 3 4 9 10 11 14 15", "mean fluorescence intensity [a.u.]": 50.1}
{"Modification": "2'F-ANA at 3 4 5 6 7 8 10 14", "mean fluorescence intensity [a.u.]": 47.8}
{"Modification": "2'F-ANA at 1 2 15", "mean fluorescence intensity [a.u.]": 207}
{"Modification": "2'F-ANA at 1 2 3 4 6 7 9 10 11 12 14", "mean fluorescence intensity [a.u.]": 62.7}
{"Modification": "2'F-ANA at 1 2 3 5 6 8 12 14", "mean fluorescence intensity [a.u.]": 64}
{"data": "Mixed results"}
{"Molecule": "PhoQ, residues 284 288 289 292 302 303 HSSMNL", "target": "PhoP, residues 12 14 15 18 19 NQCAL (Escherichia coli, UniProt P23836)", "assay": "Sort-seq, measured: YFP reporter", "system": "E. coli", "setting": "PhoQ-PhoP variant library, together with: 10 µM Mg2+", "how to read": "baseline: high Mg2+ state, higher = stronger signaling", "measurement": "fold induction", "value": 17.4}
